# Measured values gathered from unrelated publications.
# Target: Dual specificity mitogen-activated protein kinase kinase 2 (MAP2K2, Homo sapiens, UniProt P36507)
SMILES,test,setting,how to read,endpoint,result
CN1CC[C@@H](COc2cnc(C#N)cc2-c2ccn3nc(NC(=O)C4CC4)cc3c2)C1,"enzyme activity, inhibitor",1 µM,,inhibition,3%
C=CC(=O)N1CCc2ccc(-n3c(=O)ccc4cnc5ccc(-c6cnn(C)c6)cc5c43)cc21,KINOMEscan,1 µM,reference: DMSO control,remaining binding,90%
C=CC(=O)N1CCCC(n2c(=O)c3ncccc3n(Cc3ccc(Oc4ccccc4)cc3)c2=O)C1 (stereo not shown),"cell-free assay, competition with immobilised ligand",1 µM,,remaining binding,72%
CN1CCN(Cc2ccc(NC(=O)c3cccc(C#Cc4cnc(N)c5ncccc45)c3)cc2C(F)(F)F)CC1,"cell-free assay, competition with immobilised ligand",50 nM,,remaining binding,70%
Nc1ncc2c(n1)-c1c([nH]c3ccc(C4=CCOCC4)cc13)CCC2,"binding, competition with immobilised ligand",1 µM,,remaining binding,100%
CNC(=O)C[C@H](Cc1ccc(C#N)cc1)NC(=O)c1cc(-c2ccc(CN[C@H](C)c3ccc(C)cc3)o2)ccc1Cl,"enzyme activity, inhibitor",1 µM,,activity vs control,113%
CCn1cc(C(=O)O)c(=O)c2c(N)c(F)c(NC3CCCCC3)cc21,kinase activity,"0.1 µM, with: ATP at Km",,inhibition,4.3%
COc1ccc(C(=O)/C=C/c2ccccc2-c2c[nH]c3ccc(C#N)cc23)c(O)c1,"enzyme activity, inhibitor",20 µM,,inhibition,12%
O=C(Cc1ccc(OCc2ccccc2)cc1)NC1(C(=O)O)CCN(C(=O)c2ccc(-c3cccc(Cl)c3)cc2)CC1,"enzyme activity, inhibitor",10 µM,,activity vs control,106%
CC(=O)N1c2ccc(-c3ccc(CNC(=O)c4cn5cc(-c6cnc(N)nc6)nc(N6CCOCC6)c5n4)cc3)cc2CC[C@@H]1C,KINOMEscan,10 µM,,remaining binding,75%
NC(=O)C[C@H]1CCc2sc3ncnc(O[C@H]4CC[C@H](N5CCOCC5)CC4)c3c21,"enzyme activity, inhibitor",10 µM,,inhibition,2%
Cc1cccc(O[C@H]2CCC[C@@H](C(C)CNCc3ccncc3)C2)c1 (relative stereo),"enzyme activity, inhibitor",1 µM,,inhibition,-2%
C=CC(=O)Nc1cccc(-c2cnc3[nH]cc(C(=O)NC(C)(C)C)c3n2)c1,"enzyme activity, inhibitor",0.1 µM,,inhibition,5%
CNC1C[S+]2CC[S+]3CC[S+](C1)[Ru-4]321([N]=C=S)[n]2c3ccc(OC)cc3c3c4c(c5cc(F)c[n+]1c5c32)C(=O)NC4=O (stereo not shown),KinomeScan,0.1 µM,reference: untreated,remaining binding,100%
COc1cc(Nc2nc(C)cc(-c3cnn4nc(OC)ccc34)n2)cc(C(F)(F)F)c1,inhibitor,"1 µM, MEK2",reference: control,remaining activity,77%
Cc1nc2c(F)cc(-c3nc(Nc4ccc(CNC(=O)CCCCCCC(=O)NO)cc4)ncc3F)cc2n1C(C)C,"enzyme activity, inhibitor",1 µM,,inhibition,57%

# Repeated from above:
SMILES,test,setting,how to read,endpoint,result
Cc1nc2c(F)cc(-c3nc(Nc4ccc(CNC(=O)CCCCCCC(=O)NO)cc4)ncc3F)cc2n1C(C)C,"enzyme activity, inhibitor",1 µM,,inhibition,57%
O=C(Cc1ccc(OCc2ccccc2)cc1)NC1(C(=O)O)CCN(C(=O)c2ccc(-c3cccc(Cl)c3)cc2)CC1,"enzyme activity, inhibitor",10 µM,,activity vs control,106%
